Measurements from different studies.
Each line is one published result; not all experiments were run side by side. ± gives the spread as reported.

| Molecule | assay | test system | conditions | how to read | quantity | value |
| --- | --- | --- | --- | --- | --- | --- |
| c1ccc(CNCc2ccc(CN3CCCNCCNCCCNCC3)cc2)nc1 | flow chamber, confocal microscopy | human blood | 1 µM, plaque-coated, shear 600 s⁻¹ | – | thrombus volume | decreased |
| insulin aspart | – | human, plasma | sc, 0.2 U/kg, together with: standardized meal | – | lowest NEFA concentration | 0.11 mmol/L |
| Oc1cccc2ccccc12 | fish short-term reproduction | Oryzias latipes, female, liver | 258 µg/L, 21 d | – | vitellogenin level | 3840 ± 579 ng/mg liver |
| CC[C@@H](C(=O)Nc1ccc(C(N)=O)c(F)c1)n1cc(OC)c(-c2cc(Cl)ccc2-n2cc(C(F)(F)F)nn2)cc1=O | – | New Zealand White rabbit, FeCl2 jugular injury | intravenous, 2 mg/kg | – | thrombus weight | 1.6 mg |
| CCCCCCCCCCCCCCCC(=O)NCCCC[C@H](NC(=O)[C@H](CCC(=O)O)NC(=O)[C@H](CCC(=O)O)NC(=O)[C@H](Cc1ccc(O)cc1)NC(=O)[C@H](CCC(=O)O)NC(=O)CCCCCNC(=S)Nc1ccc2c(c1)C(=O)OC21c2ccc(O)cc2Oc2cc(O)ccc21)C(=O)N[C@@H](Cc1ccc(O)cc1)C(=O)N[C@@H](CCC(=O)O)C(=O)NCC(=O)NCC(=O)NCC(=O)NCC(=O)N[C@@H](CO)C(=O)NCC(=O)NCC(=O)NCC(=O)NCC(=O)N[C@@H](CO)C(=O)N[C@@H](Cc1ccccc1)C(=O)N[C@@H](CC(N)=O)C(=O)N1CCC[C@H]1C(=O)N[C@@H](CCCNC(=N)N)C(=O)N[C@@H](Cc1c[nH]cn1)C(=O)NC(C)(C)C(=O)N[C@@H](CCC(=O)O)C(=O)NCC(=O)N[C@H](C(=O)N[C@@H](Cc1ccccc1)C(=O)N[C@H](C(=O)N[C@@H](CO)C(=O)N[C@@H](CC(=O)O)C(=O)N[C@H](C(=O)N[C@@H](CO)C(=O)N[C@@H](CO)C(=O)N[C@@H](Cc1ccc(O)cc1)C(=O)N[C@@H](CC(C)C)C(=O)N[C@@H](CCC(=O)O)C(=O)NCC(=O)N[C@@H](CCC(N)=O)C(=O)N[C@@H](C)C(=O)N[C@@H](C)C(=O)N[C@@H](CCCCN)C(=O)N[C@@H](CCC(=O)O)C(=O)N[C@@H](Cc1ccccc1)C(=O)N[C@H](C(=O)N[C@@H](C)C(=O)N[C@@H](Cc1c[nH]c2ccccc12)C(=O)N[C@@H](CC(C)C)C(=O)N[C@H](C(=O)N[C@@H](CCCCN)C(=O)NCC(=O)N[C@@H](CCCNC(=N)N)C(=O)NCC(=O)O)C(C)C)[C@@H](C)CC)C(C)C)[C@@H](C)O)[C@@H](C)O | – | db/db mouse | subcutaneous, 90 nmol/kg twice weekly, 8 weeks | – | serum AST | 126 ± 8.5 IU/L |
| CC[C@H](C)[C@H](NC(=O)[C@H](Cc1ccc(O)cc1)NC(=O)[C@@H]1CSSC[C@H](NC(=O)[C@@H](CCC(=O)O)NC(=O)[C@H](Cc2ccc(O)cc2)NC(=O)[C@H](CCNC(=O)CCC(C(=O)O)N2CCN(CC(=O)O)CCN(CC(=O)O)CCN(CC(=O)O)CC2)NC(=O)CCC(C(=O)O)N2CCN(CC(=O)O)CCN(CC(=O)O)CCN(CC(=O)O)CC2)C(=O)N2C[C@H](O)C[C@H]2C(=O)N[C@@H](Cc2ccc(O)c(Cl)c2)C(=O)NCC(=O)N[C@@H](CC(C)C)C(=O)N1)C(=O)N[C@@H](CCC(N)=O)C(=O)NCc1ccc(CNC(=O)[C@H](CCNC(=O)CCC(C(=O)O)N2CCN(CC(=O)O)CCN(CC(=O)O)CCN(CC(=O)O)CC2)NC(=O)CCC(C(=O)O)N2CCN(CC(=O)O)CCN(CC(=O)O)CCN(CC(=O)O)CC2)cc1 (stereo partly shown) | T1-weighted MRI, 9.4 T | nude mice, BT-20 breast cancer xenograft, tumour periphery | iv, 20 µmol/kg, 85 min | baseline: baseline | contrast-to-noise ratio increase | 7.2 ± 2.9 |
| insulin degludec | euglycaemic clamp | healthy human subjects | subcutaneous, thigh, 0.4 U/kg, 0 to 24 h | – | AUC(GIR) mean estimate | 2570 mg/kg |
| Polymyxin B | – | human whole blood | 250 ng/mL, 4 h, 37 °C, together with: E. coli LPS 0.5 ng/mL | baseline: LPS without compound | IL-6 release | 19 ± 13.8% |
| Cc1ccc(NC(=O)c2ccc(CN3CCN(C)CC3)cc2)cc1Nc1nccc(-c2cncc(-c3oncc3C)c2)n1 | – | mild-to-moderate Parkinson's disease patients | oral, 100 mg once daily, pre-dose baseline, on anti-Parkinson medication | direction not given | MDS-UPDRS part I score | 5.4 ± 3.5 |
| CC1(C)C2CCC1(C)C(OC(=O)C(O)Cc1ccc(O)c(O)c1)C2 (stereo not shown) | – | C57BL/6 mouse, cerebral ischemia-reperfusion | iv, 12 mg/kg | baseline: untreated model | brain GSH level | increased |
| CC(C)C[C@H](NC(=O)[C@H](CO)NC(=O)[C@H](CCCNC(=N)N)NC(=O)[C@H](CC(=O)O)NC(=O)[C@H](CCC(=O)O)NC(=O)[C@H](C)NC(=O)[C@@H]1CCCN1C(=O)[C@H](C)NC(=O)[C@H](CCC(=O)O)NC(=O)[C@@H]1CCCN1C(=O)[C@@H]1CCCN1)C(N)=O | HPLC-EC | F344 rat, normal, substantia nigra | intranasal, 100 µg, 5 days/week for 3 weeks | – | DOPAC level | 103 ± 20 ng/g |
| CCO[C@H](COc1ccc(C(F)(F)F)cc1)CSc1ccc(OCC(=O)O)c(C)c1 | hepatic PPAR target gene induction | dyslipidemic Sprague-Dawley rat, liver | together with: ACC inhibitor | – | effective dose | 15 mg/kg |
| cilengitide | – | Sprague-Dawley rats, TNBS colitis, colon | ip, 18 mg/kg/day, 42 d | – | collagen deposition | 18 ± 2 % muscularis volume |
| CC(C)(Sc1ccncc1-c1ccc(C#N)c2ccccc12)C(=O)O | – | male gout patients, urine | 300 mg, 0 to 24 h, together with: verinurad 10 mg alone or combined | baseline: baseline | renal uric acid clearance | 122% |
| O=c1cc(CO)occ1O | – | zebrafish AB wild type, head melanin | 60 µM, 45 h, from 6 hpf | – | pigmentation inhibition | 18.5 ± 6.11% |
| CC1(C)CCC(c2ccc(Cl)cc2)=C(CN2CCN(c3ccc(C(=O)NS(=O)(=O)c4ccc(N[C@H](CCN5CCOCC5)CSc5ccccc5)c(S(=O)(=O)C(F)(F)F)c4)cc3)CC2)C1 | cell kill, PI exclusion flow cytometry | normal CD3+ T lymphocytes, dog, lymph node | 24 h | – | EC50 | 112 ± 97 nM |
| O=c1cc(-c2ccc(O)cc2)oc2cc(O)cc(O)c12 | cell proliferation, CellTiter-Glo | cord blood CD34+ cells, human | 24 h, lowest dose with significant inhibition | baseline: vehicle | lowest effective concentration | 250 to 500 µM |
| O=c1[nH]cc(F)c(=O)[nH]1 | item: tumour weight | nude mouse, HeLa xenograft | intraperitoneal, 30 mg/kg, every 2 days for 20 days | – | tumour growth inhibition | 61.9% |
| O=C(NCCCCN1CCN(c2cccc(Cl)c2Cl)CC1)c1ccc(-c2cccnc2)cc1 | – | rat, unilateral 6-OHDA lesion | ip, 3 mg/kg, together with: L-dopa 8 mg/kg + benserazide 8 mg/kg | – | reduction of total AIMs | 35.1 ± 9.1% |
| COc1ccc(Nc2c(-c3ccc(S(C)(=O)=O)cc3)nc3cc(C)ccn23)cc1 | formalin test | male Wistar rat | intraperitoneal, 40 mg/kg | baseline: control group | pain score AUC | decreased |
| O=C(c1cc(Cc2n[nH]c(=O)c3ccccc23)ccc1F)N1CCN(C(=O)C2CC2)CC1 | flow cytometry | PBMCs, platinum-sensitive ovarian cancer patients | dose not given, 28 days, together with: pegylated liposomal doxorubicin | – | γH2AX phosphorylation | stable |
| CCOC(=O)CSc1nnc(C23CC4CC(CC(C4)C2)C3)n1-c1ccccc1 | paw oedema | rat | intraperitoneal, 20 mg/kg | – | inhibition in vivo | 44.6% |
| CC(C)C[C@@H]1NC(=O)[C@H](CCCNC(=N)N)NC(=O)[C@H](Cc2c[nH]c3ccccc23)NC(=O)[C@H](CCCNC(=N)N)NC(=O)CNC(=O)CNC(=O)[C@H](CCCCN)NC(=O)CNC(=O)[C@H](Cc2c[nH]c3ccccc23)NC(=O)[C@H](CC(=O)O)NC(=O)[C@@H](NC(=O)[C@H](CCC(=O)O)NC(=O)[C@H](C)NC(=O)CCCC[C@@H]2SC[C@@H]3NC(=O)N[C@@H]32)CSSC[C@@H](C(=O)NCC(=O)N2CCC[C@H]2C(=O)O)NC(=O)[C@H](C)NC(=O)[C@H](CCC(=O)O)NC(=O)[C@H]([C@@H](C)O)NC(=O)[C@H](CCCCN)NC(=O)CNC(=O)[C@H](CO)NC(=O)[C@H](C)NC(=O)CNC(=O)[C@@H]2CCCN2C(=O)[C@H](Cc2c[nH]c3ccccc23)NC1=O | thioflavin S, Congo red | APPswe/PSEN1(A246E) mouse, young, brain cortex | s.c., once monthly, 5 to 12 months, without adjuvant | baseline: mock-immunized | amyloid plaque burden | 38 ± 5% |
| CSCC[C@@H]1NC(=O)[C@H](CC(=O)O)NC(=O)CNC(=O)[C@H](CCCNC(=N)N)NC(=O)[C@H](C)NC(=O)[C@H](CCC(=O)O)NC(=O)[C@H](CCCNC(=N)N)NC(=O)[C@@H]2CSSC[C@@H]3NC(=O)[C@H](CO)NC(=O)[C@H]([C@@H](C)O)NC(=O)[C@@H]4CCCN4C(=O)[C@H](C)NC(=O)[C@H](Cc4c[nH]c5ccccc45)NC(=O)[C@H](CC(=O)O)NC(=O)CNC(=O)[C@H](CCCNC(=N)N)NC(=O)CNC(=O)[C@H](CCC(N)=O)NC(=O)[C@@H]4CCCN4C(=O)[C@@H](NC(=O)CNC(=O)C(C)F)CSSC[C@H](NC(=O)CNC(=O)[C@H](C)NC(=O)[C@H](CC(C)C)NC(=O)[C@H](CSSC[C@@H](C(=O)NCC(N)=O)NC(=O)[C@H]([C@@H](C)O)NC(=O)[C@H](CCCNC(=N)N)NC(=O)[C@@H]4CCCN4C1=O)NC(=O)[C@H](CC(=O)O)NC(=O)[C@H](CO)NC(=O)[C@H](CC(=O)O)NC(=O)[C@H](CCC(N)=O)NC(=O)[C@H](CO)NC3=O)C(=O)N[C@@H](C(C)C)C(=O)N2 (stereo partly shown) [fluorine-18 labelled] | – | nude mice, U-87 MG xenograft, tumour | dose not given, 2.5 h post-injection, together with: c(RGDyK) 330 µg co-injected | baseline: without blocking | reduction of tumour uptake | ~60% |
| COc1ccc([C@H](CC(=O)O)N2CCN(CCCc3ccc4c(n3)NCCC4)C2=O)cn1 | bioluminescence imaging | B16F10-luc, mouse, melanoma lung metastasis model | 300 mg/kg twice daily | baseline: vehicle | lung metastasis reduction | 30 to 40% |
| CCOC(=O)[C@@]1(C)CSC(c2ccc(OCCOCCOC)cc2O)=N1 | – | bile duct-cannulated rats, non iron-overloaded, bile | oral, 300 µmol/kg | – | duration of iron excretion | > 48 h |
| [H]/N=C(/N)c1ccc(NCc2nc3cc(C(=O)N(CCC(=O)O)c4ccccn4)ccc3n2C)cc1 | platelet activation, inhibitor, item: ATP release | mouse platelet-rich plasma | 20% plasma, together with: thrombin | – | EC50 | 7 nM |
| Cc1ccc(NC(=O)c2ccc(CN3CCN(C)CC3)cc2)cc1Nc1nccc(-c2cccnc2)n1 | – | rat, SU5416/hypoxia PAH model | oral, 15.0 mg/kg once daily, 2 weeks | baseline: vehicle | reduction in RVSP | 28% |
